Assay results collected from several papers.
Each numbered part is a random draw from the data of one study; scales do not carry over between parts. Changes are numbered by the printed parent chain.

Block 1 — target: CCNB2, cyclin fold, Cln2 fusion (human); technique: yeast growth competition, sequencing; medium: yeast; setting: strong parent motif; relative to: not given; direction: higher = stronger binding; measurement: normalised enrichment score
Starting sequence: viral docking peptide; YKVKRRLVFGADD; partner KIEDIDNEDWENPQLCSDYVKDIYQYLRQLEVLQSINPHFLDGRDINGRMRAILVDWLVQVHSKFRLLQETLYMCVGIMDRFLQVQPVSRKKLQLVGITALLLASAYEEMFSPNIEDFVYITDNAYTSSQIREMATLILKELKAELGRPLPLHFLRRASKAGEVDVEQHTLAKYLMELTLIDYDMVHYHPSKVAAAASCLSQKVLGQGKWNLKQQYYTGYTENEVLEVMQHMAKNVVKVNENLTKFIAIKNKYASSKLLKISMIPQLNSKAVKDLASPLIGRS
YKWKRRLVFGADD [V3W]: -0.204
YKVSRRLVFGADD [K4S]: 0.719
YKVKRILVFGADD [R6I]: 0.488
YKVKRRLVFGGDD [A11G]: 1.84
YFVKRRLVFGADD [K2F]: 0.993
YKVKRRLVFGTDD [A11T]: 1.97
YKVKRRLIFGADD [V8I]: 1.45
YKVKRRLVFIADD [G10I]: 1.51
YKVKRRQVFGADD [L7Q]: 0.342
YWVKRRLVFGADD [K2W]: 0.626
YKVNRRLVFGADD [K4N]: 1.14
YTVKRRLVFGADD [K2T]: 2.36
YKVKTRLVFGADD [R5T]: 0.365
YKVKRRLVFHADD [G10H]: 1.77
YKVKRHLVFGADD [R6H]: 0.748
YDVKRRLVFGADD [K2D]: 2.53
YKVKRRLVFGSDD [A11S]: 1.76

Block 2 — technique: protein-binding microarray; molecule type: double-stranded DNA, one strand shown; medium: in vitro; tested at: 2540 nM top; setting: 60-bp whole probe; with: salmon DNA 0.4 mg/ml; relative to: random background probes; direction: higher = stronger binding; measurement: fitted relative affinity; all sequences stand within: GCCTAGCAC … GTCTTGATTCGCTTGACGCTGCTG
Target: Interferon regulatory factor 3, full length, phosphomimetic (IRF3, Homo sapiens, UniProt Q14653, residues 1-427, S386D/S396D/S398D/S402D/T404D/S405D)
Chain of UniProt Q14653 (whole entry, unmodified, looked up): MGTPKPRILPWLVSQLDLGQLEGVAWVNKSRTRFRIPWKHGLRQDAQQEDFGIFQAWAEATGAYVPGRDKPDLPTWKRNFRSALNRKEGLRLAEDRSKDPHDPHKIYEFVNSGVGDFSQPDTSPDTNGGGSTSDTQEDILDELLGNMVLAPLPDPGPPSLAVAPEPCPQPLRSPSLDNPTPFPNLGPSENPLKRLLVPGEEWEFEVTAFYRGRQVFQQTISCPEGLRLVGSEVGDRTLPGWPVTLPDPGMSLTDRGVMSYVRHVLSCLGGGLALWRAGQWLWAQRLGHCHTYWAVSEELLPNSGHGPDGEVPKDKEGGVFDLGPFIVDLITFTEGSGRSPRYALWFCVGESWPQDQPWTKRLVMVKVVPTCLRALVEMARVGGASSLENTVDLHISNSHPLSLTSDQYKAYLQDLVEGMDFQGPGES
GACGATTTCGGCTTTCGAGACGTGCTA: 1.64 z-score
CTCTTTTTGCTTTCTTTATGGTGCTAG: 2.65 z-score
TCAACGAATTAGAAAGAGCAGTGCTAG: 0.177 z-score
GACGATATCAGTATCGAGTCGTGCTAG: 1.59 z-score
TTAGGTATCGGTTTCGGCTAGTGCTAG: 6.82 z-score
GACGATTTCGGGACAGGAGACGTGCTA: 1.87 z-score
GACGCACTGGACTTTCGGGACGTGCTA: 0.0689 z-score
TCACCTCTCCATACTTCACTGTGCTAG: 1.04 z-score

Block 3 — observed: peptide-MHC binding; molecule type: peptide; tested at: concentration not given; measurement: binding
Target: HLA class I histocompatibility antigen, A alpha chain, allele A*80:01 (Homo sapiens, UniProt P04439)
VTECKLIYY: inactive
TVFRNQNRV: inactive
TVFCFFNYI: inactive
DAVEDFLAF: inactive
IGYRLGMGK: inactive
YQRRRRFAI: inactive

Further values, each from its own experiment — technique: cross-linking MS
NOP14 (Homo sapiens, UniProt P78316) — interaction screen (NOC4L (Homo sapiens, UniProt Q9BVI4); hits only): cross-linked
SF3B1 (Homo sapiens, UniProt O75533) — cross-linked residues (SF3B6 (Homo sapiens, UniProt Q9Y3B4); cells; with: BSPNO): K413 to K29
CHI3L2 (Homo sapiens, UniProt Q15782) — cross-linked residues (RPRD1A (Homo sapiens, UniProt Q96P16); cell fractions; with: DMTMM): K315 to D236
NPM1 (Homo sapiens, UniProt P06748) — cross-linked residues (WDR87 (Homo sapiens, UniProt Q6ZQQ6); cell fractions; with: DSSO): K223 to K1534
WDR18 (Homo sapiens, UniProt Q9BV38) — cross-linked residues (LAS1L (Homo sapiens, UniProt Q9Y4W2); cell fractions; with: DSSO): K432 to K499

For quick reference, copied from above (further values, each from its own experiment):
CHI3L2 (Homo sapiens, UniProt Q15782) — cross-linked residues (RPRD1A (Homo sapiens, UniProt Q96P16); cell fractions; with: DMTMM): K315 to D236
NPM1 (Homo sapiens, UniProt P06748) — cross-linked residues (WDR87 (Homo sapiens, UniProt Q6ZQQ6); cell fractions; with: DSSO): K223 to K1534
